{"data": "Results gathered from unrelated publications", "note": "Protocols differ between the studies behind these lines. Values joined by “and” are separate records of one study, mostly repeats; a detail may differ. ± gives the spread as reported."}
{"SMILES": "CN1CCC[C@H](CN2c3ccccc3Sc3ccccc32)C1.Cl", "system": "fasted female ICR mouse, lung", "conditions": "oral, 16 mg/kg", "measurement": "Cmax", "result": "10200 ng/g"}
{"SMILES": "O=C1NCCc2nc(OCc3cccc(F)c3)ccc21", "test": "modified Irwin test", "system": "Sprague-Dawley rat, male", "conditions": "oral, 100 mg/kg, 1 h", "how to read": "higher = stronger change", "measurement": "motor activity score", "result": 0.6}
{"SMILES": "C[C@@H]1OC(=O)[C@H](Cc2ccccc2)[C@H]1O", "system": "aerobic laboratory soil, dark", "conditions": "shortest worst case, dosed as metabolite, modelling endpoint", "measurement": "DT50", "result": "0.35 days"}
{"SMILES": "COc1ccc(C[C@@H](C)[C@@H](C)Cc2ccc(OC)c(OC)c2)cc1OC", "system": "beagle dog female, plasma", "conditions": "oral, 100 mg/kg/day, day 1", "measurement": "AUC(0-t)", "result": "18000 ± 1090 ng·h/mL"}
{"SMILES": "Nc1ncc(-c2ccncc2)nc1Nc1ccc2[nH]ccc2c1", "system": "C57BL mice, plasma", "conditions": "subcutaneous, 10 mg/kg", "measurement": "tmax", "result": "15 min"}
{"SMILES": "CCO[C@H]1CCN(Cc2c(OC)cc(C)c3[nH]ccc23)[C@H](c2ccc(C(=O)O)cc2)C1", "system": "PNH patients, active haemolysis", "conditions": "oral, 200 mg, 8 weeks, treatment", "measurement": "incidence impaired fasting glucose", "result": "0%"}
{"SMILES": "NC1(C(=O)N[C@@H](CCO)c2ccc(Cl)cc2)CCN(c2nc[nH]c3nccc2-3)CC1", "system": "metastatic CRPC patients", "conditions": "400 mg b.i.d., any grade, treatment-related, with: enzalutamide 160 mg daily", "measurement": "incidence of Stomatitis", "result": "0%"}
{"SMILES": "C=CC(=O)N1C[C@H](n2c(C#CC3CC3)c(C(=O)N[C@H](C)c3ccccc3)c3c(N)ncnc32)C[C@@H]1C", "system": "BALB/cAJcl-nu/nu male mouse, plasma", "conditions": "oral, 25 mg/kg, repeated dosing 7 days", "measurement": "apparent half-life", "result": "45.6 min"}
{"SMILES": "O=C(Nc1cnccc1Cl)N1CCN(Cc2ccc3c(c2)OC(F)(F)O3)CC1", "test": "measured: Ecchymosis", "system": "human healthy young men", "conditions": "25 mg, multiple dose", "measurement": "adverse event incidence", "result": "0%"}
{"SMILES": "CCc1cc(C(=O)NC)c2nccc(N3CCc4c(cc(Cn5ccnc5)cc4-c4cn(C)nc4C(F)(F)F)C3=O)c2c1", "system": "Sprague Dawley rats", "conditions": "oral, 50 mg/kg once daily, 7 days", "measurement": "serum GGT activity", "result": "0.5 ± 0.58 U/L"}
{"SMILES": "Cn1cc(Nc2nccc(-c3ccc4c(c3)CN(C3COC3)CC[C@H]4NC(=O)c3cn(C(C)(C)C)nn3)n2)cn1", "test": "measured: plasma cell count", "system": "human, clinical trial, whole blood", "conditions": "50 mg twice daily, follow-up", "measurement": "percent change from baseline", "result": "87.4%"}
{"SMILES": "CCOc1c([C@H](C)n2nc(C)c3c(N)ncnc32)cc(Cl)c(F)c1[C@@H]1CNC(=O)C1", "test": "measured: QTcF ≤450 ms", "system": "previously treated B-cell malignancy", "conditions": "oral, 10 mg once daily, baseline QTcF ≤450 ms", "measurement": "ECG observations", "result": "100%"}
{"SMILES": "O=C1NC(=O)/C(=C/c2ccc3ncnc(N4CCCCC4)c3n2)S1", "system": "NSG mice", "conditions": "dose not given, day 3", "measurement": "body weight", "result": "24.1 g and 18.5 g and 16.7 g and 22.5 g"}
{"SMILES": "Cc1ccc(Sc2ccccc2N2CCNCC2)c(C)c1", "test": "measured: blood uric acid increased", "system": "healthy adult women", "conditions": "oral, 5 mg daily, 12 days", "measurement": "participants with TEAE", "result": "0%"}
{"SMILES": "O=C(O)c1ccc(O)c2ncccc12", "target or system": "HBL-1", "conditions": "0.1 µM, 120 h", "measurement": "viability", "result": "124%"}
{"SMILES": "O=C(Nc1nc2cccc(-c3ccc(CN4CCS(=O)(=O)CC4)cc3)n2n1)C1CC1", "test": "measured: gastrointestinal pain", "system": "human rheumatoid arthritis patients", "conditions": "oral, 150 mg once daily, 4 weeks, regardless of relatedness", "measurement": "treatment-emergent adverse events", "result": "0%"}
{"SMILES": "Nc1nc(=S)c2[nH]cnc2[nH]1", "target or system": "HBL-1", "conditions": "1 µM, 120 h", "measurement": "viability", "result": "74.7%"}
{"SMILES": "C[C@H]1Oc2cc(cnc2N)-c2c(nn(C)c2C#N)CN(C)C(=O)c2ccc(F)cc21", "system": "human patients, plasma", "conditions": "oral, dose not given, cycle 2 day 1, mean, with: avelumab", "measurement": "AUClast", "result": "5460 ng·h/mL"}
{"SMILES": "OC[C@H]1O[C@@H](c2ccc(Cl)c(Cc3ccc(O[C@H]4CCOC4)cc3)c2)[C@H](O)[C@@H](O)[C@@H]1O", "test": "measured: infections and infestations", "system": "healthy Korean men", "conditions": "oral, dose not given", "measurement": "number of TEAEs", "result": 1}
{"SMILES": "COC[C@@H](CC(C)C)NC(=O)c1ccc(C)c(C)c1", "system": "Sprague-Dawley rats, plasma", "conditions": "oral, 30 mg/kg", "how to read": "relative to: female over male", "measurement": "AUC(0-t) ratio", "result": 2.41}
